Measurements gathered from unrelated publications.
Parts stem from different laboratories: compare values within a part only. Positions count from the first letter of the parent shown.

Block 1
Target: Centromere-binding protein 1, full length, His-tagged (CBF1, Saccharomyces cerevisiae, UniProt P17106, residues 1-351)
UniProt P17106, sequence (whole entry, looked up): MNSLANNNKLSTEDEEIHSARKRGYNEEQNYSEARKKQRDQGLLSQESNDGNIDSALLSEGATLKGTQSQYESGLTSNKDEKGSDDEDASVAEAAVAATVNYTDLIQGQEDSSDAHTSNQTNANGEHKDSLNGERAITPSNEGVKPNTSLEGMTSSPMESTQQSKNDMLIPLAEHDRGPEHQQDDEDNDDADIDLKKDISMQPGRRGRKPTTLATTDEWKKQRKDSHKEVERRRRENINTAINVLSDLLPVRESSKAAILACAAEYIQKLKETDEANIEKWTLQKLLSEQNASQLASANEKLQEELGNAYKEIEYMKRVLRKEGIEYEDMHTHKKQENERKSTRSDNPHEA
Method: competition protein-binding microarray
Molecule type: double-stranded DNA, one strand shown
Matrix: in vitro
Concentration: 2 µM
Notes: whole 60-bp probe, lowest competitor level
Added: Pho4 competitor, 0.05 µM
Reading: higher = stronger binding
All sequences stand within: … GTCTTGATTCGCTTGACGCTGCTG
| Sequence | fluorescence intensity |
| --- | --- |
| CTAACGAAGGTTTTTCACGTGAACTACAAGCCAAGT | 1120 a.u. |
| TGGTTCAGACTGGATCAGGCAATCAGCGAACAAATG | 60.1 a.u. |
| TTATCCACTACCTGTCATGATGGTCCATTTGGTGCT | 67.9 a.u. |
| ATTATTTCTATCGGCCACGTGTTGATTGGGCTTAAT | 862 a.u. |
| TGCGCAACAACTTGCCCCGTGGGTGTATGTCTAGAA | 70.8 a.u. |
| AGAATGTCCCCTGTACACGTGGCAGATTGGCTGAAA | 1030 a.u. |
| ATCAGGTTCTATCCAATACAAAAAGGAGTATGAAGA | 72.9 a.u. |
| GGGGTTAAGGTCTGGCACGATGGTAAGACGATGAGG | 76 a.u. |
| ATCATAACGGAGCGAACCGTGCCGAAGATGTCAAGA | 63.9 a.u. |
| CGCTTATACAAAAGGAACGTGATGGGGACATTATTT | 245 a.u. |
| AAAGCGGTAATTTGCGCAGTGGGTGCAGATATCTAT | 65.9 a.u. |
| TTCATTGATCGAGAGCGCGTGGAACAAATTCTAGAA | 95.5 a.u. |
| CGGGGTTAAGTTTGTTTAGTGGGTGGCTTGCAGCAG | 60.1 a.u. |
| ATTGTATGAAGATAACGCGTGGTGAATTGGAAATAG | 106 a.u. |
| GTCAACCGATTGGATCAGGTGAGGAAGTACTCAGCG | 226 a.u. |
| CTCAACATGGCAGAAGATGTGACGAATCTTATGCTT | 69.8 a.u. |
| CCTAATGTTAACGGCCACGGGGAATGCGGATCAACT | 75.1 a.u. |

Block 2
Target: Sal-like protein 4, full length isoform A (SALL4, Homo sapiens, UniProt Q9UJQ4, residues 1-1053)
UniProt Q9UJQ4, sequence (whole entry, looked up): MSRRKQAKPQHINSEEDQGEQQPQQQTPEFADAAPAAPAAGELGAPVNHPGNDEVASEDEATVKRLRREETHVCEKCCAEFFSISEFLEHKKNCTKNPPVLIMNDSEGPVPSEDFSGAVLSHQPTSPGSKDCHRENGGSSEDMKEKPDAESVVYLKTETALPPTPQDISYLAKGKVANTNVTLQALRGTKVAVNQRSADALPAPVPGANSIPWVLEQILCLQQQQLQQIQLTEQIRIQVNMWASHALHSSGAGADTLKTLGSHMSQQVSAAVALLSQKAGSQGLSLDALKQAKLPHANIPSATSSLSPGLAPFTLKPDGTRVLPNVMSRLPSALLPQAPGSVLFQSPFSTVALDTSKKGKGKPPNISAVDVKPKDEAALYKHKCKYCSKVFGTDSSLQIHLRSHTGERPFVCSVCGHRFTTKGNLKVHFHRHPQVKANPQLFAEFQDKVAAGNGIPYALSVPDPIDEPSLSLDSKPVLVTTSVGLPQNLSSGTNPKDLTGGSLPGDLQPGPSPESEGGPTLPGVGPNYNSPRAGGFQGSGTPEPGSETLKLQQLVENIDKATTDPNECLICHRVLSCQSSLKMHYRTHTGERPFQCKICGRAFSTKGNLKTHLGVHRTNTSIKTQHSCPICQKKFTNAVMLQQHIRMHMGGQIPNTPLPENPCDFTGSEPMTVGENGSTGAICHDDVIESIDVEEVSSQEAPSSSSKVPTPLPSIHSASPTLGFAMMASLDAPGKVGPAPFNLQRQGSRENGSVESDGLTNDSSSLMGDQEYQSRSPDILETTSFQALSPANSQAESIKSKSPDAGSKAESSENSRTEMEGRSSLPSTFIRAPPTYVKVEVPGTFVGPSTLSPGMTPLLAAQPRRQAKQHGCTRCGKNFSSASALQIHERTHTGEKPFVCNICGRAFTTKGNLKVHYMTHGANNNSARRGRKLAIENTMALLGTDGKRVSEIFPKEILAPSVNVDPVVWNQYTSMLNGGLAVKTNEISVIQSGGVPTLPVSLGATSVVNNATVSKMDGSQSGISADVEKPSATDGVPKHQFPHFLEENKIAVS
Method: universal PBM
Molecule type: double-stranded DNA, one strand shown
Matrix: in vitro
Concentration: 600 nM
Notes: 8-mer, flanks averaged, mean of replicates
Reading: higher = stronger binding
| Sequence | E-score |
| --- | --- |
| GCTAATAC | 0.103 |
| ACCATTTA | 0.231 |
| GTCATCCA | -0.0802 |
| AGCGTGAC | -0.126 |
| CAATTTGA | 0.257 |
| CGATGGTA | -0.0333 |
| CAGACACC | -0.153 |
| GCGTCTAA | 0.0842 |
| ATTGTCTC | 0.0337 |
| CCTTGTCA | 0.217 |
| AGGCCTGG | -0.404 |
| CCTCCGGA | -0.293 |
| ACTCACTG | -0.0706 |
| GTCTAAAA | 0.115 |
| CGAGAGTA | 0.0787 |
| AGTTTCAT | 0.23 |
| CTCGTGTA | 0.075 |
| AACTCGTG | 0.0324 |
| CGCTATAG | 0.0544 |
| AATGGAGT | 0.0518 |
| CAATCAAC | 0.00283 |
| CTGATCGA | -0.14 |
| GTTCAAGA | 0.0432 |
| GCCCCAGC | -0.365 |
| ATGAGGTC | -0.137 |

Block 3
Target: ABI1, truncated, D143A, DHFR fusion (Arabidopsis thaliana)
Method: DHFR PCA, deep sequencing
Matrix: yeast
Notes: methotrexate growth selection, single substitutions
Added: (+)-ABA 0 µM
Reference: wild-type fitted maximum
Reading: higher = stronger binding
Starting sequence: PYL1, truncated, DHFR fusion (Arabidopsis thaliana); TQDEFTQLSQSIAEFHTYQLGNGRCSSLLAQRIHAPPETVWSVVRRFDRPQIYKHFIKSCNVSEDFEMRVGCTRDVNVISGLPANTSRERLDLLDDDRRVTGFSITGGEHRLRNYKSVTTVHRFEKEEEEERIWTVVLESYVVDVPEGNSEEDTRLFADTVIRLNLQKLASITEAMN
| Variant | relative binding score [%] |
| --- | --- |
| N177F | 23.8 |
| M68C | 2.56 |
| F157A | 1.1 |
| E131C | 30.6 |
| V100E | -1.6 |
| V78K | 2.19 |
| V76K | 3.12 |
| V161T | 14.2 |
| E64P | 48.7 |
| S27A | 2.47 |
| E38N | -1.23 |
| L169C | -5.31 |
| V137T | -0.481 |
| C25Q | -10.8 |
| E130W | 1.35 |
| E128I | -3.41 |
| N85A | 50 |
| L93V | 32.5 |
| F103I | -3.71 |
| I162K | 10.1 |
| A84D | 20.4 |

Block 4
Target: RNA binding protein fox-1 homolog 2, RRM domain, GST-SBP tag (RBFOX2, Homo sapiens, UniProt O43251-10, residues 100-194)
Method: RNA Bind-n-Seq
Molecule type: RNA
Matrix: in vitro
Concentration: 365 nM
Notes: natural RNA segment, single round, ends assumed
Reference: no-protein control
Reading: higher = stronger binding
All sequences stand within: GGGAGUUCUACAGUCCGACGAUC … UGGAAUUCUCGGGUGCCAA
Residues (chain): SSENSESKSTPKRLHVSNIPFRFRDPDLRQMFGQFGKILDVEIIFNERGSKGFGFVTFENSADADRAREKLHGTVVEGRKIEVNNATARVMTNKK
| Sequence | RBNS enrichment (R) |
| --- | --- |
| GGAGCCUCUGCACCCAGGGAAAAUGUUACCCUUUACAGGGGGGAAGGGUAAACCAGUAGGGAAUACAGUACAAUCCCAACCCUACUGGGAGGGGCGGGAGGGAGGUGUUG | 1.03 |
| CCACUUUGAGAGAUGGCUUGUGUUAGGCUGAAACUGAUAGAAACGUUAACUGCUGCAGCUCUCUUUGGGCCACCCUAGUGUUUGUGAUUCAUGCUUGAAGUAACCUUGCC | 1.54 |
| GUCAUCAGAAACCCCGUACUCAUGGCCCUGCUCAGGGCUGCUGUUGACUCUGCUUGAGAGGUGGCACUUGUCGAACAGCCUGGCACCUGGUAUCCAGGCUCCAACGACCU | 0.342 |
| AUUGAUUGAUUGAUUGACUGAUUGUUUUAACUGAUUACUGUAGAUCAACCUGAUGAUUUGUUUGUUUGAAAUUGGCAGGAAAAAUGCAGCUUUCAAAUCAUUGGGGGGAG | 1.33 |
| AAGAACCACAACAACAACCCCCCCAAAAAAUAAUCCAUAUAAUUUAAGUAUAUUGCUGGAGAGAGACUAUCCCACCACCUAUACAUCUACAAAGAUAUAUGUCUAAAGUU | 0.416 |
| ACACAGAAAUGUAGCUGUGUUCUGGAACUGAAUCUUACAUGGUAUACUUAGUGCUGCUGGGUAAUUUGUUGGUAUAUUAUCUGGUUAGUGGUUAAUGCUUCCUUUAAAAA | 0.478 |
| AAGCUUGAAUAUUGUUUUUGCACCAGAGGAGAAGUGAGGAAAUUCGGAGCUAUACGUGUGUGCAGAGGGUUGCUACCUAUGGGUUUACGCUUAAUUUUAAUUGGGAGAAA | 0.948 |
| UUUCUCCCACAGGCCUCUCUUUCUUUCUAGGUUGCUGGGGAGAAAUGGGUACCCUAUGAUCCCCCUCCCCUUCUCCUCCAGUAAAUACCUGGAAGAGGGAACCUGAAUCC | 0.382 |
| AUGAGAGAAAUAUAUUUACAAAUGCUUUAUUCUCUUCUUUAAUAAAAAGUGCACCGGUAUUCUAGAAGUCCAAGUGACCCUGGGUCUAUCGUUUCGCCUCCGAGUCUCAC | 0.671 |
| CAAAGGGCUCUUUUUCAGCUAACCCUGGGAAGGCUCUGUGGGAGGGAGGUCGGAGCCAGCUGUUUCUCGAUCUUUGGUAUAUCUUUGGAUCUUAUUUGUACAUUAAUGAU | 0.36 |
| UCCCCACGGAUCCACCAGGAUUGAAGGAGCUUCGGACCCAUGCCGCCUUCUUUUCCCACGCCUCUAACUUAAUGUUUUAUAUUUGAAUUGUGUGGCUCAAGGGUCAUGUA | 0.263 |
| GUAGAAUUCAGAGACUUCUCAUUCAAUCUUGUAUCCUAUGCAGCUACAAAUAUUUUUUAAAUGUUAGUAAUAAACAUUGGAAUUUUGUCUUAAAGAGUUCAAAACCUUGG | 0.546 |

Block 5
Target: Histone acetyltransferase KAT6A, winged helix 1, GST fusion (KAT6A, Homo sapiens, UniProt Q92794, residues 1-85)
Method: protein binding microarray
Molecule type: double-stranded DNA, one strand shown
Matrix: in vitro
Concentration: not given
Notes: 8-mer, flanks averaged, mean of 2 arrays, mostly near background
Reference: not given
Reading: higher = stronger binding
Target sequence (chain): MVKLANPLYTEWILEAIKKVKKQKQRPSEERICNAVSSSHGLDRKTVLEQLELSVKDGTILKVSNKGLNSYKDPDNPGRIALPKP
| Sequence | E-score |
| --- | --- |
| GAGCCAAC | -0.205 |
| CTTGAAGA | -0.201 |
| AAGGGACA | 0.00942 |
| GCAATGCA | -0.0634 |
| AGCTCGTA | -0.196 |
| CGGCTAAA | 0.167 |
| CGCGCCCC | 0.404 |
| CTCTCATA | -0.243 |
| GGGACAAC | 0.00907 |
| CACGGATG | 0.186 |
| AACCTGTA | -0.181 |
| CAGGTGAA | -0.234 |
| CTACCCTA | -0.0358 |
| ACTCCAGC | -0.123 |
| GACACAAA | -0.0812 |
| AAAAGCGG | 0.315 |
| AGCAGTTG | 0.00662 |
| CGCGTACG | 0.419 |
| AGTGAGAT | -0.0338 |
| GAACTCGC | 0.0236 |

Some of these lines once more (block 2):
| Sequence | E-score |
| --- | --- |
| GCTAATAC | 0.103 |
| ACCATTTA | 0.231 |
| GTCATCCA | -0.0802 |
| AGCGTGAC | -0.126 |
| CAATTTGA | 0.257 |
| CGATGGTA | -0.0333 |
| CAGACACC | -0.153 |
